Measured values pooled from the literature.
Compare with care: the assays were run in different laboratories. Numbers after ± are the reported error. In brackets after ≈: the same amount, converted by molar mass.
ALB: Albumin (ALB, Bos taurus, UniProt P02769)

Chains of the proteins cited; added tags and fusions are not shown. Residues count along the entry.
UniProt P02769, 25-607 limits assumed: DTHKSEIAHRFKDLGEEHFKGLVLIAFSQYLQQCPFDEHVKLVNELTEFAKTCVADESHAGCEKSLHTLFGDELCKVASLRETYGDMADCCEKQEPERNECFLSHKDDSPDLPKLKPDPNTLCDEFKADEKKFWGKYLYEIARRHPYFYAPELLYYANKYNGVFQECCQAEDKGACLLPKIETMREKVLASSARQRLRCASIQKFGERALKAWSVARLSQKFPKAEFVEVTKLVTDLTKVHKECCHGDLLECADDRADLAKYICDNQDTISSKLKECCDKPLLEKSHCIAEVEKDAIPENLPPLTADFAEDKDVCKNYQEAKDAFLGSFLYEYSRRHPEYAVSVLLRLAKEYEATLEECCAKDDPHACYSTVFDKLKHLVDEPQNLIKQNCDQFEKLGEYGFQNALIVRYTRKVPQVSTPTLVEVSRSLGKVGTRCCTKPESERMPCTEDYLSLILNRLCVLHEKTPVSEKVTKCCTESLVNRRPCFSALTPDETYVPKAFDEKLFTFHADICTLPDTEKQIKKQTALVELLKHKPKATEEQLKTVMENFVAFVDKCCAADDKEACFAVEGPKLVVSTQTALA
UniProt P08183, whole entry: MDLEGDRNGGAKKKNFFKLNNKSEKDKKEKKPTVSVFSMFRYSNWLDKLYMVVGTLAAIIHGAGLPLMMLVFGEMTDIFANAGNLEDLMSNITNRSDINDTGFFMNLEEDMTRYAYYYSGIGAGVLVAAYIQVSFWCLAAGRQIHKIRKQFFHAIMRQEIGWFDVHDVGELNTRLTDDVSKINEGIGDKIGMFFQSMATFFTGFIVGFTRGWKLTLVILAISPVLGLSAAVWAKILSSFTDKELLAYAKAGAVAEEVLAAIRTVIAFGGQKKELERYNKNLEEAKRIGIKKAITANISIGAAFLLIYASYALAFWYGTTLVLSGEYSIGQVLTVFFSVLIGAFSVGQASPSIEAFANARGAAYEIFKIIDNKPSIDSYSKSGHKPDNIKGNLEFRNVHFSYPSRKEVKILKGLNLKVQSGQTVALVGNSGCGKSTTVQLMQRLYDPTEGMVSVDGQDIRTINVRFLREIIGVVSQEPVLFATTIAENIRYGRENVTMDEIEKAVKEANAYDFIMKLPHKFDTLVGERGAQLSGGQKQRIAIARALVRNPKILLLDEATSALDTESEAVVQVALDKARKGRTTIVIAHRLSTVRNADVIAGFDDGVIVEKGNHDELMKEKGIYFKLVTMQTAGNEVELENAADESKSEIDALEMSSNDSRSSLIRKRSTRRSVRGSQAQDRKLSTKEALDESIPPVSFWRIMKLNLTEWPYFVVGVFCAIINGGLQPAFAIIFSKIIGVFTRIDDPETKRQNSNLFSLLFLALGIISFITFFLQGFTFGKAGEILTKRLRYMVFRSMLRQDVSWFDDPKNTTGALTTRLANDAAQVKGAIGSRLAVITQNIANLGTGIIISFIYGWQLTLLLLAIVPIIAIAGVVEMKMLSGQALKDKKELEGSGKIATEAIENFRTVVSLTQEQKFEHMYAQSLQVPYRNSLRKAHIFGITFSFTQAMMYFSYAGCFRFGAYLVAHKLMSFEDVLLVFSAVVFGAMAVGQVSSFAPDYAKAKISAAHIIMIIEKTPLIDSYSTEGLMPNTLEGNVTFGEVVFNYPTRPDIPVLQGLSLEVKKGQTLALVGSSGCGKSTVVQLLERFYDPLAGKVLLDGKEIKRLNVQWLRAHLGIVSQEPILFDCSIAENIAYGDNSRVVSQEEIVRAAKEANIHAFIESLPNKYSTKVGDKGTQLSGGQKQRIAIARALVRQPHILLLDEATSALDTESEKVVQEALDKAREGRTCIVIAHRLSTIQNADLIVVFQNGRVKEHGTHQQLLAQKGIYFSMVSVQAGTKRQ
UniProt P08684, whole entry: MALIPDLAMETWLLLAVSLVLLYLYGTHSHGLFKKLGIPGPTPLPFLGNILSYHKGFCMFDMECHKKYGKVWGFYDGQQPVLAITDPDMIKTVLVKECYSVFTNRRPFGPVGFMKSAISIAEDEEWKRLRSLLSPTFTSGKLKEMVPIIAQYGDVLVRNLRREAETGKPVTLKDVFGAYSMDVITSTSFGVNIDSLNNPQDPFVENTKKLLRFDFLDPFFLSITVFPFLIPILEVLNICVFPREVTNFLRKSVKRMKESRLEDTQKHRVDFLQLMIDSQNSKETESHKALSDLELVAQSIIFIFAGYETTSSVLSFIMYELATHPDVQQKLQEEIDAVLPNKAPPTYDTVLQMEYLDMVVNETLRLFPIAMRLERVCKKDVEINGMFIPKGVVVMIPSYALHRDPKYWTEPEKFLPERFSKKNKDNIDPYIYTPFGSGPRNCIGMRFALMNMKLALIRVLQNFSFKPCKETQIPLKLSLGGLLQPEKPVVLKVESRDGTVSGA
UniProt P08588, whole entry: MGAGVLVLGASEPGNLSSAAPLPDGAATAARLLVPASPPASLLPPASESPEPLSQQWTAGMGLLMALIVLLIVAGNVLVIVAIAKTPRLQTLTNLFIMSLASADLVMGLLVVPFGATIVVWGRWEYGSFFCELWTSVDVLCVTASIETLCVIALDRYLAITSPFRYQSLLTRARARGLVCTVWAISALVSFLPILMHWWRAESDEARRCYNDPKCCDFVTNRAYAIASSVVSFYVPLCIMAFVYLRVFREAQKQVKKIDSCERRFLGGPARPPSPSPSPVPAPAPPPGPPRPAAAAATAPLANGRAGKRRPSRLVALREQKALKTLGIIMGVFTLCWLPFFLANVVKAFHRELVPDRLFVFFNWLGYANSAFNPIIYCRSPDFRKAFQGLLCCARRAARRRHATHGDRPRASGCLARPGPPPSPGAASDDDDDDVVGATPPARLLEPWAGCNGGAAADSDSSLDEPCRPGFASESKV
UniProt Q12809, whole entry: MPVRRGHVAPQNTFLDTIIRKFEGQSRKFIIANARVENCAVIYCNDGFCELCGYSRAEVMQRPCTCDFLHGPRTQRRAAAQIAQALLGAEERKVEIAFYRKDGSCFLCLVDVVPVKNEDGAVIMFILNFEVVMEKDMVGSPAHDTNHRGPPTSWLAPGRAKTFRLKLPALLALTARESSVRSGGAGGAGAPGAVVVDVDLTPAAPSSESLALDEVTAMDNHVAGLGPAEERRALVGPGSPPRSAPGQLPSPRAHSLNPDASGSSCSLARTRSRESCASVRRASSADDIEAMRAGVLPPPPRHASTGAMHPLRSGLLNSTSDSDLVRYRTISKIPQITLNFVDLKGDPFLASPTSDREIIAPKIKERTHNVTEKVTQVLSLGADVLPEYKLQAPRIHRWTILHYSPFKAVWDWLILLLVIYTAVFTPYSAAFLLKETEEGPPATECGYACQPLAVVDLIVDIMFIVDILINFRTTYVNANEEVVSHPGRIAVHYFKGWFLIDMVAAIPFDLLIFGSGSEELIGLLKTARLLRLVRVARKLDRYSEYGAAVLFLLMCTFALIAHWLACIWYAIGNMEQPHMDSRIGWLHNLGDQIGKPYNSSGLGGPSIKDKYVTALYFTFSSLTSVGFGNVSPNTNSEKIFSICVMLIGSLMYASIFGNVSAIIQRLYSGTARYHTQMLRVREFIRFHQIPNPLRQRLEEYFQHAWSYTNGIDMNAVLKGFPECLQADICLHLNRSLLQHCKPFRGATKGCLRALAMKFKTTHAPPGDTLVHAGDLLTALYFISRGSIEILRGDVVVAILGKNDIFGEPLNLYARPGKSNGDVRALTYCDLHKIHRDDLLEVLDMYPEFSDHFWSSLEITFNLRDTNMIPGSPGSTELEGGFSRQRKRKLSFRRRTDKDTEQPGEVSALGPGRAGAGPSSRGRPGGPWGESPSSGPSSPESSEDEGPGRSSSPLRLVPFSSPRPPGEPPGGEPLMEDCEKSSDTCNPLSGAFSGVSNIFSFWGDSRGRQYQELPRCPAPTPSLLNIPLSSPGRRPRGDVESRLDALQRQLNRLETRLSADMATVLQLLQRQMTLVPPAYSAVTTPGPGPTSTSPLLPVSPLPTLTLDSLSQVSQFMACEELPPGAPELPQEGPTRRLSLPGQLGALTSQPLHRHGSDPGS

| Molecule | tested on | assay | system | setting | scale | measurement | value |
| --- | --- | --- | --- | --- | --- | --- | --- |
| O=C(NCc1ccc2c(c1)OCO2)C(=O)Nc1ccccc1 | ALB | binding, fluorescence quenching |  | pH 7.4 |  | IC50 | > 100 µM |
| COc1cc(OC)c2ccccc2c1C=C1C(=O)NC(=S)NC1=O | DLBCL cell lines except HBL1 |  |  | 4 µM, 48 h |  | viability | ≥ 60% |
| zidovudine | Vero | cytotoxicity |  |  |  | CC50 | 56 µM |
| CC(=O)N1C[C@@H](COP(=O)(N(C)C)N2C[C@@H](COP(=O)(N(C)C)N3C[C@@H](COP(=O)(N(C)C)N4C[C@@H](COP(=O)(N(C)C)N5C[C@@H](COP(=O)(N(C)C)N6C[C@@H](COP(=O)(N(C)C)N7C[C@@H](COP(=O)(N(C)C)N8C[C@@H](COP(=O)(N(C)C)N9C[C@@H](COP(=O)(N(C)C)N%10C[C@@H](COP(=O)(N(C)C)N%11C[C@@H](COP(=O)(N(C)C)N%12C[C@@H](COP(=O)(N(C)C)N%13C[C@@H](COP(=O)(N(C)C)N%14C[C@@H](COP(=O)(N(C)C)N%15C[C@@H](COP(=O)(N(C)C)N%16C[C@@H](COP(=O)(N(C)C)N%17C[C@@H](COP(=O)(N(C)C)N%18C[C@@H](COP(=O)(N(C)C)N%19C[C@@H](COP(=O)(N(C)C)N%20C[C@@H](COP(=O)(N(C)C)N%21C[C@@H](COP(=O)(N(C)C)N%22C[C@@H](COP(=O)(N(C)C)N%23C[C@@H](COP(=O)(N(C)C)N%24CCN(C(=O)CCCN%25C(=O)CC(SC[C@H](NC(=O)[C@H](CCCNC(=N)N)NC(=O)[C@H](CCCNC(=N)N)NC(=O)[C@H](CCCNC(=N)N)NC(=O)[C@H](CCCNC(=N)N)NC(=O)[C@H](Cc%26ccccc%26)NC(=O)[C@H](Cc%26ccccc%26)NC(=O)[C@H](CCCNC(=N)N)NC(=O)[C@H](CCCNC(=N)N)NC(=O)[C@H](CCCNC(=N)N)NC(=O)[C@H](CCCNC(=N)N)NC(=O)[C@@H](N)CCCNC(=N)N)C(N)=O)C%25=O)CC%24)O[C@@H](n%24cnc%25c(=O)[nH]c(N)nc%25%24)C%23)O[C@@H](n%23cc(C)c(=O)[nH]c%23=O)C%22)O[C@@H](n%22ccc(N)nc%22=O)C%21)O[C@@H](n%21cnc%22c(N)ncnc%22%21)C%20)O[C@@H](n%20cc(C)c(=O)[nH]c%20=O)C%19)O[C@@H](n%19ccc(N)nc%19=O)C%18)O[C@@H](n%18cc(C)c(=O)[nH]c%18=O)C%17)O[C@@H](n%17cc(C)c(=O)[nH]c%17=O)C%16)O[C@@H](n%16cnc%17c(=O)[nH]c(N)nc%17%16)C%15)O[C@@H](n%15ccc(N)nc%15=O)C%14)O[C@@H](n%14cnc%15c(=O)[nH]c(N)nc%15%14)C%13)O[C@@H](n%13ccc(N)nc%13=O)C%12)O[C@@H](n%12ccc(N)nc%12=O)C%11)O[C@@H](n%11cnc%12c(N)ncnc%12%11)C%10)O[C@@H](n%10cc(C)c(=O)[nH]c%10=O)C9)O[C@@H](n9cc(C)c(=O)[nH]c9=O)C8)O[C@@H](n8cc(C)c(=O)[nH]c8=O)C7)O[C@@H](n7cc(C)c(=O)[nH]c7=O)C6)O[C@@H](n6cc(C)c(=O)[nH]c6=O)C5)O[C@@H](n5cnc6c(=O)[nH]c(N)nc65)C4)O[C@@H](n4cc(C)c(=O)[nH]c4=O)C3)O[C@@H](n3cnc4c(=O)[nH]c(N)nc43)C2)O[C@@H](n2cnc3c(=O)[nH]c(N)nc32)C1 (stereo partly shown) | BCBL1 cells |  |  | 8 and 16 µM |  | cytotoxicity | not toxic |
| C=C[C@@H]1[C@H]2CCC[C@]1(c1cccc(O)c1)CCN2CCc1ccccc1 |  |  | mouse liver microsomes 0.5 mg/mL | 1 µM, pH 7.4, together with: NADPH |  | half-life | 0.0183 h |
| CCCSc1nc(N[C@@H]2C[C@H]2c2ccc(F)c(F)c2)c2nnn([C@@H]3C[C@H](OCCO)[C@@H](O)[C@H]3O)c2n1 |  |  | STEMI patients, plasma | 180 mg loading dose, 6 h, median, together with: morphine |  | AUC(0-6 h) | 579 ng·h/mL |
| Cc1cc2ccccc2n1CCNC(=O)c1ccc(-c2nnn[nH]2)cc1 |  | nephelometry | PBS with 1% DMSO | pH 7.4 |  | kinetic solubility | 0.257 µM (≈ 0.089 µg/mL) |
| COc1ccc2nc3ccc(=O)cc-3oc2c1 | Mycobacterium tuberculosis |  | mc2 6206 PA-824-resistant ddn mutant | 7 days |  | MIC90 | 1.4 µM (≈ 0.318 µg/mL) |
| CSCC[C@@H](C=O)NC(=O)[C@H](CC(C)C)NC(=O)[C@H](CC(C)C)NC(C)=O | HCT-8 | neutral red uptake |  | 48 h |  | CC50 | > 100 µM |
| CCCc1nn2c(=O)cc(CSc3nc(-c4ccc(C)cc4)nc4cc(=O)[nH]n34)nc2s1 |  | dynamic light scattering | assay buffer | 40 µM, with Tween 20 |  | particle size | 7.2 nm |
| CO[C@]12CC[C@@]3(C[C@@H]1C(C)(C)O)[C@H]1Cc4ccc(O)c5c4[C@@]3(CCN1CC1CC1)[C@H]2O5 | ATP-dependent translocase ABCB1 (ABCB1, Homo sapiens, UniProt P08183) | P-gp ATPase activity |  | 100 µM, 40 min | reference: basal activity, negative means inhibition | fold stimulation | -0.91 ± 0.96 fold |
| COC(=O)c1ccc(Cl)cc1NC(=O)CSc1ncc(S(=O)(=O)c2ccc(Br)cc2)c(=O)[nH]1 |  | dynamic light scattering | assay buffer | 40 µM, with Tween 20 |  | particle size | 7.5 nm |
| C=C(C)[C@@H]1[C@H]2OC(=O)[C@@H]1[C@]1(O)C[C@H]3O[C@]34C(=O)O[C@H]2[C@]14C |  |  | male NIH-NCI Swiss mice, dead animals, brain | intraperitoneal, 2 mg/kg, 20 to 30 min after dosing |  | brain concentration | 376 ± 120 nM |
| CO[C@]12CC[C@@]3(C[C@@H]1C(C)(C)O)[C@H]1Cc4ccc(O)c5c4[C@@]3(CCN1CC1CC1)[C@H]2O5 | Cytochrome P450 3A4 (CYP3A4, Homo sapiens, UniProt P08684) | human liver microsomes |  | 10 µM |  | inhibition | 35.3% |
| CCCN1CCN(c2ccc3c(c2)C2CC3CCN2C(=O)OCc2ccccc2)CC1 (stereo not shown) | Beta-1 adrenergic receptor (ADRB1, Homo sapiens, UniProt P08588) | binding, radioligand binding |  |  |  | Ki | 6.28 µM |
| CC#C/C(=N\OC[C@H]1COCCN1)c1ccc2ncnc(Nc3ccc(OCc4cccc(F)c4)c(Cl)c3)c2c1 |  |  | nude mouse, plasma | oral, 12.5 mg/kg |  | Tmax | 1 h |
| CC(C)[C@@H](CN1CCC(C)(c2cccc(O)c2)CC1)NC(=O)[C@H]1Cc2ccc(O)cc2CN1 | Voltage-gated inwardly rectifying potassium channel KCNH2 (KCNH2, Homo sapiens, UniProt Q12809) | radioligand binding | hERG-expressing membranes | 60 min, pH 7.4, together with: [3H]astemizole |  | Ki | > 10 µM |
| CCOc1ccc2cc(-c3nn(CC4CCN(C)CC4)c4ncnc(N)c34)ccc2n1 |  |  |  | concentration not given, mouse |  | half-life | > 2 h |
| CCN1CCN(Cc2ccc(NC(=O)c3ccc(C)c(/C=C/c4cnc5[nH]ccc5c4OC)c3)cc2C(F)(F)F)CC1 | ETV6-FGFR3 fusion | kinase-CDC37 interaction, inhibitor | human cells | 5 µM | reference: vehicle | log2 fold change | -1.2 |
| CC(CCC(=O)N(CCNC(=O)C(F)(F)F)CC(=O)O)[C@H]1CC[C@H]2[C@@H]3[C@H](O)C[C@@H]4C[C@H](O)CC[C@]4(C)[C@H]3C[C@H](O)[C@]12C (stereo partly shown) |  |  | mouse, gallbladder |  | reference: MRI over LC-MS/MS | concentration ratio | 2.3 fold |
| c1ccc(N2CCN(c3nc4cc5c(cc4s3)OCCO5)CC2)cc1 | ALB | binding, fluorescence quenching |  | pH 7.4 |  | IC50 | 38.5 µM |
| Oc1ccc(C2NCCc3c2[nH]c2ccc(Cl)cc32)cc1O (stereo not shown) |  | dynamic light scattering | assay buffer | 40 µM, without Tween 20 |  | particle size | 1440 nm |
| C[C@H](Cc1ccc(O)c(O)c1)[C@@H](C)Cc1ccc(O)c(O)c1 |  |  | SKH-1 hairless mice | topical, 3% |  | toxicity | not toxic |
| O=C(Nc1ccccc1)c1cc([N+](=O)[O-])ccc1Cl | Salmonella typhimurium | Ames plate incorporation | TA98 | 1500 µg/plate, without metabolic activation |  | revertants | 309 ± 23 revertants/plate |
| C#CCCCCCC(=O)O | Escherichia coli |  |  | concentration not given |  | growth reduction | no effect |
